Published values gathered from unrelated publications.
A part holds a random share of what one study measured.

Series 1
Target: Histone acetyltransferase KAT6A, both winged helices, GST fusion (KAT6A, Homo sapiens, UniProt Q92794, residues 1-181)
Technique: protein binding microarray
Molecule type: double-stranded DNA, one strand shown
Medium: in vitro
Tested at: not given
Notes: 8-mer, flanks averaged, mean of 2 arrays, mostly near background
Relative to: not given
Reading: higher = stronger binding
Quantity: E-score
Target sequence (chain): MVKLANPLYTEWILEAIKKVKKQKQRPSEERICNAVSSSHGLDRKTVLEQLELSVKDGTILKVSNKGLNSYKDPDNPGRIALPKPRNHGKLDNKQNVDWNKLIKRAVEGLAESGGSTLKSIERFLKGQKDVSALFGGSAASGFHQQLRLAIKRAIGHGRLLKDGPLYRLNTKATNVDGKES
AACGCTAA: 0.086
ACCGCTGG: 0.0932
AACATAAG: 0.00388
AAGAAATC: -0.164
GCACCCTA: -0.079
AATTGCAG: -0.083
AGCCTGCG: 0.118
TCCTCGAA: -0.0817
CCTTAATA: -0.238
GCTCCACC: -0.111
ACTGTTAC: -0.0317
TAACTCCA: -0.112
AGGATTAT: -0.189
AGCTGTGA: -0.0808
TGTACGAA: 0.0423
GCTGGGAC: -0.117

Series 2
Target: RING finger protein unkempt homolog, zinc fingers 1-6, GST-SBP tag (UNK, Homo sapiens, UniProt Q9C0B0, residues 30-357)
Chain of UniProt Q9C0B0 (30-357, looked up): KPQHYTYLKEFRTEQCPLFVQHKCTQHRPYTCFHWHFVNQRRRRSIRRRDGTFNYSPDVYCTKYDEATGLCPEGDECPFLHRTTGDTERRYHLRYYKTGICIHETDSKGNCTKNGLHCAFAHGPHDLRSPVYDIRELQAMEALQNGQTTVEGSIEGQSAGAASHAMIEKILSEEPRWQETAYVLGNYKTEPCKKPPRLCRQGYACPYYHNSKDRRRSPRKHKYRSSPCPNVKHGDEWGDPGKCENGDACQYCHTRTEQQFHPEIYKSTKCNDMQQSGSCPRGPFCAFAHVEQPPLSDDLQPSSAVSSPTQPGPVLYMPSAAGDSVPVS
Technique: RNA Bind-n-Seq
Molecule type: RNA
Medium: in vitro
Tested at: not given
Notes: RNA with constant flanks, human and mouse sites, ends assumed
Relative to: input RNA pool
Reading: higher = stronger binding
Quantity: bound/input enrichment
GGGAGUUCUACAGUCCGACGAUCUUUCUUAAAUCUCCCUAAAUCAAAGUGGAUGUCACAUACGGAUCUUAAGGAUGGAAGAAUGUAAUGACAUUUGAAAGCUUUACAUAUGUGGUUCCCGACAUUCACCCACAUUUAUCUAUUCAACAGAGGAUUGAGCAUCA: 0.24 ratio
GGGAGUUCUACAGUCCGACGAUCAUUGAAAUAAAAGUAUUAUCAGAACUUGGUAGAGAAGCUCAGAAUCUUUCAGCUAUGGAAAUUAGAAAGAAAGCUAGAUCAUUUGCUAAAGCAGCCAUUGAGAAACAGAAAUCAGCAUUUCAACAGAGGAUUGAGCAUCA: 0.983 ratio
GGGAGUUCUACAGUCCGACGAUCGUCAGCCAGUCACUACAGCAUUACCUGGAGCUGGGACGGCAAGAACUUUUCAAGAUUCUACAUAGUAUUUUGUUAAAUGGCGAAACUCGUGAAGCGGCUCUCAGCUACAUGGCGGCCCUUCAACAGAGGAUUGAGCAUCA: 1.68 ratio
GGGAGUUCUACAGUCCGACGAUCUCCAAAGAAGUAUUAUCCCAAGGACAACAGCAGGGAGCCCCAAAUGCUGGGGUUAUAACUAAUGCACCUUUGCAGAGACAUUUUAAACCAAAGAAGGUGGAGUGUUUGGAAGUUGAAACUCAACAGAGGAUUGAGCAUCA: 0.232 ratio
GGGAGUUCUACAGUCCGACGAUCACUGACUCACCUCGCUUAUUGGCCUCCCCCUCCAGCAGGAGUAUUGACAUUUCAGCUACUAUCCCCAAGUUUACAAACACGCAGAUUACGGAACAUUACUCCACCUGUAUCAAACUGUCCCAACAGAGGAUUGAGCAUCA: 0.313 ratio
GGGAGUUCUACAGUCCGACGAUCAAGAACUUGAAUCUCAACACAGUAUCUUAAAAGAUGAGGUAACUUAUAUGAAUAAUCUUAAGUUAAAACUUGAAAUGGAUGCUCAACAUAUAAAGGAUGAGUUUUUUCAUGAACGGGAAGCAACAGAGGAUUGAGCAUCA: 0.203 ratio
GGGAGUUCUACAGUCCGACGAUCCAAGUCUACAAAAGCUCUUCAGAGAAGUAAGAAUAAUGAAGAUUUUAAAUCACCCAAACAUAGUGAAGUUGUUCGAAGUCAUUGAAACGGAAAAAACUCUCUACUUAAUCAUGGAAUAUGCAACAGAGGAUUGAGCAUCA: 0.368 ratio
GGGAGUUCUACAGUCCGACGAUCCUUCCUUUCUGACCCUUUCCGGGCGUUCAAGAUGUCGAAGCGAGGACGCGGUGGGUCCUCCGGGGCGAAAUUCCGGAUUUCCCUGGGUCUUCCGGUCGGAGCUGUGAUCAACUGUGCAGACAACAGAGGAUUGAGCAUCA: 0.123 ratio
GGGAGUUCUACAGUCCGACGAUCCCCAACCCCUGAGGCCUACAUCCAUCGAGCUGGCAGGACAGCACGCGCUAACAACCCAGGCAUAGUCUUAACCUUUGUGCUUCCCACGGAGCAGUUCCACUUAGGCAAGAUUGAGGAGCUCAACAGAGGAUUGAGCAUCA: 0.654 ratio
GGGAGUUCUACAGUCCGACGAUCGCUGUUCCCUUCUUUAGCUCCCUUCAGUAUAGCAGAAGAACAGAAAGUUCAAGGUCUACUGAGGGUCACAUGCCCAUUAAUCUAGCCCUGGAGGGGAUAAGGAGGCACUGCUUCCCUUUACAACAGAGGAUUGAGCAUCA: 0.424 ratio
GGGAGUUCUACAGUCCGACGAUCUGAUGAACGCAGACACGAUGAGCUCCCUGAAGACAUCAACAACUUUGACGAAGACAUGAACAGGCAGUUUGAGAAUAUGAACCUGCUGGAUCAGGUGGAGUUGCUUGCACAGAGCUACAGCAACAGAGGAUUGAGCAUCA: 0.109 ratio

Series 3
Target: Ras GTPase-activating protein-binding protein 1, C-terminal RGG region (G3BP1, Homo sapiens, UniProt Q13283)
Chain of UniProt Q13283 (whole entry, looked up): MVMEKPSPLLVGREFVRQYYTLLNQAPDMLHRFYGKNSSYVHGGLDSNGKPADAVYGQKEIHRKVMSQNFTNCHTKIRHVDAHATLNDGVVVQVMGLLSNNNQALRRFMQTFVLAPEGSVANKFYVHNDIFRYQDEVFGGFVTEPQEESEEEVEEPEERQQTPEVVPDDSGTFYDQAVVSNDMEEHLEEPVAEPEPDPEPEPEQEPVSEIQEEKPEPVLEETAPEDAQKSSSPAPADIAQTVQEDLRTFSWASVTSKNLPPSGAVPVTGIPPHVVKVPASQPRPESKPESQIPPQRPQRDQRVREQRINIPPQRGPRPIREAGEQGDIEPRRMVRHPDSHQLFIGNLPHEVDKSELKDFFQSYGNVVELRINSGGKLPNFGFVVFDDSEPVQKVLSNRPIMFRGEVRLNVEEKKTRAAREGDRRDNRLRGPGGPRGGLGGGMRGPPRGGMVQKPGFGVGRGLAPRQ
Technique: RNA Bind-n-Seq
Molecule type: RNA
Medium: in vitro
Tested at: 1 µM
Notes: whole 134-nt RNA, ends assumed
Added: 150 mM KCl
Relative to: input library
Reading: higher = stronger binding
Quantity: log2 enrichment
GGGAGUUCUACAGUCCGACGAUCCUCAAGUCCUGUGCUACACAUCGUAUGUACCGAAUCGGUGGAAAAAGGAAAGGAAAGUAUUAUGUUACGCCGUUCGGAUCUGCACUUCCAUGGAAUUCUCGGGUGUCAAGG: -1.09
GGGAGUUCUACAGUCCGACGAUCUCCUCAAGUCCUGUGCUACACAUCGUAUGUACCGAAUCGGUGGUUUGGAGGAAAGUAUUAUGUUACGCCGUUCGGAUCUGCACUUCCAGCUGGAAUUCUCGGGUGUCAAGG: -0.976
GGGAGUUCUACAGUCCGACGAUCCUCAAGUCCUGUGCUACACAUCGUAUGUACCGAAUCGGGCGGGCGGGGCGGGGAAAGUAUUAUGUUACGCCGUUCGGAUCUGCACUUCCAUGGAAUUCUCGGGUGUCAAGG: 2.87
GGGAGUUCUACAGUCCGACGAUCGUCCUGUGCUACACAUCGUAUGUACCGAAUCGGGGCCCCCGGCCCCCGGGCCCCCGGGGAAAGUAUUAUGUUACGCCGUUCGGAUCUGCAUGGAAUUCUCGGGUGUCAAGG: -1.81
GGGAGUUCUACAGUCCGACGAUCGUCCUGUGCUACACAUCGUAUGUACCGAAUCGGAAAAAAGGAAAAAAGGAAAAAAGGGGAAAGUAUUAUGUUACGCCGUUCGGAUCUGCAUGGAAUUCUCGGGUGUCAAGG: -1.64
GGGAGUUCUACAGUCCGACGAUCUGGGAGGUGGAUUUUGUUUAUUUUUUUAGCUCAUUUCCAGGGGUGGGAAUUUUUUUUUAAUAUGUGUAAUGAAUAAAGUUGUUUUUGAAAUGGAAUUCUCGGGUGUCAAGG: 3.68
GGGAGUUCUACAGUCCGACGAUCCACAGACAACACGCACCCACACAGACACAGAGGGAAGGGGUUGGGAUGGGGUCAGGGUGCACAGCAGGGCGGGGUAGGACCCCAGCCCCUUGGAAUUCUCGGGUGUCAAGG: 0.0123
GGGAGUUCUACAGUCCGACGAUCAGUCCUGUGCUACACAUCGUAUGUACCGAAUCAAAUUUAAAUUUUUAAACCCCCAAAAAAGUAUUAUGUUACGCCGUUCGGAUCUGCACUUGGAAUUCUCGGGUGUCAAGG: -1.15
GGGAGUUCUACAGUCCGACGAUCGUCCUGUGCUACACAUCGUAUGUACCGAAUCAAAUUUAAAUUUUUAAACCCCCCCAAAAAAGUAUUAUGUUACGCCGUUCGGAUCUGCACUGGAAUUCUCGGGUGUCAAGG: -0.475
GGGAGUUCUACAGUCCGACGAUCAGUCCUGUGCUACACAUCGUAUGUACCGAAUCAAAUUUAAACCCCCCCAAAUUUAAAAAAGUAUUAUGUUACGCCGUUCGGAUCUGCACUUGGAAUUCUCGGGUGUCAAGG: -0.689

Series 4
Target: RNA binding protein fox-1 homolog 2, RRM domain, GST-SBP tag (RBFOX2, Homo sapiens, UniProt O43251-10, residues 100-194)
Technique: RNA Bind-n-Seq
Molecule type: RNA
Medium: in vitro
Tested at: 365 nM
Notes: natural RNA segment, single round, ends assumed
Relative to: no-protein control
Reading: higher = stronger binding
Quantity: RBNS enrichment (R)
Residues (chain): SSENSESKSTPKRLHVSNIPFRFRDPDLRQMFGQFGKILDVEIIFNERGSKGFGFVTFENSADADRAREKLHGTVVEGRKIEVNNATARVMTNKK
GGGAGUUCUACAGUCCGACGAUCCUAGAAUCUUUUUCUGAUUUUUAACUCCAGGAGAGAUAGCAUUUUCCUUACAUUAUAAAAUAAAAGCAGUGAAGUAAAUUGACAGCUAAGGAUCUCUAUUUCAUCUCUUGUGGAAUUCUCGGGUGCCAA: 0.528
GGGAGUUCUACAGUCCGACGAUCUUCUUCUGCCUUUAAAAUGCCACCCGUGUAUUCAAACCAUGGCCACUUGAUACUUAUGUAGAAUCCAUCGUGGGCUGAUGCAAGCCCUUUAUUUAGGCUUAGUGUUGUGGUGGAAUUCUCGGGUGCCAA: 0.883
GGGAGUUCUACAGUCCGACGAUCGGCUGGAGGGAAAAGGAGUGGCUCCUAGAGUCCUGGGGGUCACCCCAGGGCUUUUGCUGACUCUGGGAAAGAGUCUGGAGACCACAUUUGGUUCUCGAACCAUCUACCUGUGGAAUUCUCGGGUGCCAA: 0.3
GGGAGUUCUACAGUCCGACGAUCGCUCCUGCCUUUGCCCCCCACUUUAAUCUAAGCACUGGGCCAUGAAAUCUGACACUAAGGUACCCUGAGCAUAGGAGGGGCAUGGGUCGCACCAUUGCACUUUAGAAAUAUGGAAUUCUCGGGUGCCAA: 1.1
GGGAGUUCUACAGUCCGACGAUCAGUUUGGCUAGAUCUUAAAGCUGUUUUGGUAAUUAAUGUCUUGUGACAUUUAAUAAUGACUUAGCAAGCAUUGGAUUUUUUUUUUUUGUUGUUCUUGUUAGCUAAAGCACUGGAAUUCUCGGGUGCCAA: 1.3
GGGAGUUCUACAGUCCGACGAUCUAGUAAGCUUAUCCGAAGCCUACAGUGAGAAACCAUGUAGGCUUCUUGCCCGUUUCUAAUCACCAUUCUGUGUGUCUUCUGUUUUUCUUGAUUUUUUUCAAGUGUGGUAUUGGAAUUCUCGGGUGCCAA: 0.396
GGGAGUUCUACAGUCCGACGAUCAGUGGAAUUUUCUAACAAAAUAAACUUGCUCAUUUGGUCCGUUUUCUGUAACUUUUGCUAAACACUUUAUACAUUUUUAAUGUUGAAAAGCAGUGUCUCCUGCCAGAACUUGGAAUUCUCGGGUGCCAA: 0.304
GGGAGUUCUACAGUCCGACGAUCUCCUUAGACAAUUAACCACCAAAUUCCCUGGGGUUCAUUGCCAUGCAGUUCAUUUCCCACUAACCAUGCAGGUGCACAUCACGGAAAUACCGGUUUAACUACUAGUGUGUUGGAAUUCUCGGGUGCCAA: 0.511
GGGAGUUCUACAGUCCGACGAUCUUGAUUUGGAUCCUGAAACGGAACAAGUGAAUGGAUUGUUUAAGCAGGUCUUCCAUCUCCAAGAGGCCACUCUGUCCGGCCAGUGUCUGUUCAGGCCCACUGAAGAAGUGUGGAAUUCUCGGGUGCCAA: 0.315
